Results collected from several papers.
Every numbered part comes from another study and shows a few of its results, in no order.

Study 1
Target: Ras GTPase-activating protein-binding protein 1, RRM domain (G3BP1, Homo sapiens, UniProt Q13283)
Chain of UniProt Q13283 (whole entry, looked up): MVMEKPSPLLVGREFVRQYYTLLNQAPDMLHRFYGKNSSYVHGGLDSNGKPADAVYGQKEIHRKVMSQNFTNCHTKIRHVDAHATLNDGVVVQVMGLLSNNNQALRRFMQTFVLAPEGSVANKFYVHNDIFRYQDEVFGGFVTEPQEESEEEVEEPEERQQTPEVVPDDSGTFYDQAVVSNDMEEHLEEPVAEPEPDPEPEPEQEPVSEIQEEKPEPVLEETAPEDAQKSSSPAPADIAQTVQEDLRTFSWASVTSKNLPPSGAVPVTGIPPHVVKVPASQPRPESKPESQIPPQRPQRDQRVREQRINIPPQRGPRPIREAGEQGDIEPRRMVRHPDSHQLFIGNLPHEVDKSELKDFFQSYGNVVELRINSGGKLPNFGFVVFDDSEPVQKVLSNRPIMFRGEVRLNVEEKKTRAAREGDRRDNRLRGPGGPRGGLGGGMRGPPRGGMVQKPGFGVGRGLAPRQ
Technique: RNA Bind-n-Seq
Form: RNA
Sample: in vitro
Concentration: 1 µM
Notes: whole 134-nt RNA, ends assumed
With: 150 mM KCl
Reference: input library
Reading: higher = stronger binding
Oligonucleotide	log2 enrichment
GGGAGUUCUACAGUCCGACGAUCUGGCCCUGGUGGCAUGCGGGGAGGAAGAGGUGGCCUCAUGGAUCGUGGUGGUCCCGGUGGAAUGUUCAGAGGUGGCCCUGGUGGAGACAGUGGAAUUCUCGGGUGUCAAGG	1.45
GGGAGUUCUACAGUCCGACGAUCUCCUCAAGUCCUGUGCUACACAUCGUAUGUACCGAAUCGGAAAGGUGGAGGAAAGUAUUAUGUUACGCCGUUCGGAUCUGCACUUCCAGCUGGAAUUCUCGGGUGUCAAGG	-0.233
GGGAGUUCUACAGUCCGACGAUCUAGCUUUAGAGGAGGAUCUGAUGGAUAUGGCAGUGGACGUGGAUUUGGGGAUGGCUAUAAUGGGUAUGGAGGAGGACCUGGAGGUGGCAAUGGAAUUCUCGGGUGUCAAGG	-0.801
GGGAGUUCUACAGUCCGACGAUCAGUCCUGUGCUACACAUCGUAUGUACCGAAUCGGUUUUUUUGGAAAAAGGAAAAAGGAAAGUAUUAUGUUACGCCGUUCGGAUCUGCACUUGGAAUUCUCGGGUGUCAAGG	-0.246
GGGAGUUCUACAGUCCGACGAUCGUCCUGUGCUACACAUCGUAUGUACCGAAUCGGGGAAAAGGGGAAAAGGGAAAAGGGGAAAGUAUUAUGUUACGCCGUUCGGAUCUGCACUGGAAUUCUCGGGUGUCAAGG	0.419
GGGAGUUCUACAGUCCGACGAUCUAACUUUAGAGGAGGAUCUGAUGGAUAUGGCACUGGACGUGGAUUUGGGGAUGGCUAUAAUGGGUAUGGAGGAGGACCUGGAGGUGGCAAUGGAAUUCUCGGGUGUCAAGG	-0.543
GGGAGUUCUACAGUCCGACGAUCCUCAAGUCCUGUGCUACACAUCGUAUGUACCGAAUCGGUGGUUUGGUUUUUGGAAAGUAUUAUGUUACGCCGUUCGGAUCUGCACUUCCAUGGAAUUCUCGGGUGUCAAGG	-0.26
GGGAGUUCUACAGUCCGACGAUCAGUCCUGUGCUACACAUCGUAUGUACCGAAUCAAACCCAAAUUUUUAAAUUUUUAAAAAAGUAUUAUGUUACGCCGUUCGGAUCUGCACUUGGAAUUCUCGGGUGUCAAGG	-0.804
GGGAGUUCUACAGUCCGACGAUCCAAGUCCUGUGCUACACAUCGUAUGUACCGAAUCGGGGUGGGGAAAGGGGAGGGGAAAGUAUUAUGUUACGCCGUUCGGAUCUGCACUUCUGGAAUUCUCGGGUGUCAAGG	1.17
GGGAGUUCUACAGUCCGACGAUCACCAUGCAGGUGGGCAUCUUUGGUAAGUGGGGCAAGGGGGGGAUAGGGAGGGGGGUAACACUUUGGGAACAGGUGGUCCCAGGUCGUUUCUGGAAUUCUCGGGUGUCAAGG	-0.542

Study 2
Target: RING finger protein unkempt homolog, zinc fingers 1-6, GST-SBP tag (UNK, Homo sapiens, UniProt Q9C0B0, residues 30-357)
Chain of UniProt Q9C0B0 (30-357, looked up): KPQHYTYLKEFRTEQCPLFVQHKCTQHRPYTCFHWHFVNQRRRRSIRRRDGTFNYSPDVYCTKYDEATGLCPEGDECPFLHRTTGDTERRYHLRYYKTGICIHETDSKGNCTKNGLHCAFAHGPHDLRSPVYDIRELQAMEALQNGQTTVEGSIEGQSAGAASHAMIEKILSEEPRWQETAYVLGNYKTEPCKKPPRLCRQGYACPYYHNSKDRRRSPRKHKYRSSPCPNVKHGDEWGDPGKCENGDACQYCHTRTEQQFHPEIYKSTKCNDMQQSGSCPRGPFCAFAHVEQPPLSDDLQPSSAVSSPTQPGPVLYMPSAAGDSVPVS
Technique: RNA Bind-n-Seq
Form: RNA
Sample: in vitro
Concentration: not given
Notes: RNA with constant flanks, ends assumed
Reference: input RNA pool
Reading: higher = stronger binding
Oligonucleotide	bound/input enrichment
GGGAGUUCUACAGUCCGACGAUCUAGUGAAAUUCUCUAGCACUGUAUUUAGAUUCUGGAUUUUUAUAAUUCAUGCUUAAUGUAUCCGACAUUUUUAGCCCAUAAUUAAAACAUUGUUGCUUUUACACAGGUGUAGUUUGGUGCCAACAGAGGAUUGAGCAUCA	23.7 ratio
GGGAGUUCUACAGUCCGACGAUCCGCUGAUGUGAACCUUUUUAUAGAUUGUAGUAACCUGCAGAAAGAAGUAGGUUUUUAUUUUCCGGAAGUUAUGUACCAUAAUUUUAAACUUAAGUUUCUCUAAUAUUACUAACUAUAAAACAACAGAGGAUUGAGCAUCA	0.791 ratio
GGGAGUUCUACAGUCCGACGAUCGAAAACAUAUUCAGUCGUAUAGUAGAUAUACAUGAACUUAGUGUAAAGUUACUGGGCCAUACCGAAGAUACUGUAGAAAUGACAGAUGAAGGCAGUCCCCACCCAUUAGUAGGAAGCUGUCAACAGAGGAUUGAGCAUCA	2.14 ratio
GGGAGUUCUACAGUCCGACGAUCUUCAGGAUGCUGGUGUCACGUUUUGCCAGUCGGUUUCGGAAAGACUCGAGCACUGAGAUGGUCCGAACCAACUUGGCUCAUAGAAAGUCUCUGUCUCAGAAGGAGAACAGACACAGGGUGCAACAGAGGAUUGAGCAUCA	0.143 ratio
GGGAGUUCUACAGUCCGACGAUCUCUGGGCAGAGUGAGGAGUCCCCUCGGAAACGACGGAAGGCAACGGAAGCCAUAGACUCUCUCCGGAAAUCCAAACGACUUCGGAAUAGGAAGUAGAUUGGAAUAUGGCUCUAGCUCCAGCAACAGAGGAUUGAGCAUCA	0.276 ratio
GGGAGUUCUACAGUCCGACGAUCCCUGGGGCUUUGGUGCAGUGCUUGAGGCUACCAAAGUUUGCAGAGGAGGAGACUCUUUGUACCGACUCUAUAACUCCUUGUGCUGAUGGAAUUCAUUUGUUGGUAGGACUGCGGACAUGCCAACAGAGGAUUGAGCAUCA	0.154 ratio
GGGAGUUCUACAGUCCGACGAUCAAGCCUUUCUCUCUCACUUCCCGAGGUGCCUUGUUUCAGGAGAUCUCCAGCAAUGACAUCCGUUCCAAACUCACUCUUCUUACACUUCACUUCCCCAGACUACGGAUUCUCUGGUGCCCCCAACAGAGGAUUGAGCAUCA	0.451 ratio
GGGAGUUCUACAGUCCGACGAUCCAUGUCUGCCAGGAUGAACACCAACUUUACAAUGAAUUUUUCACAAAACCAACAUCAAAAUCCGAUGAGCUUUUGGAGAAACUGUGUGUGUCAUUGUAUGAUGUCUUCAGGCCAUUGAUCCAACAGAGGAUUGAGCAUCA	0.125 ratio

Study 3
Target: Interferon regulatory factor 3, full length, phosphomimetic (IRF3, Homo sapiens, UniProt Q14653, residues 1-427, S386D/S396D/S398D/S402D/T404D/S405D)
Technique: protein-binding microarray
Form: double-stranded DNA, one strand shown
Sample: in vitro
Concentration: 2540 nM top
Notes: 60-bp whole probe
With: salmon DNA 0.4 mg/ml
Reference: random background probes
Reading: higher = stronger binding
Shared flanks, not repeated: GCCTAGCAC … GTCTTGATTCGCTTGACGCTGCTG
Target sequence (chain): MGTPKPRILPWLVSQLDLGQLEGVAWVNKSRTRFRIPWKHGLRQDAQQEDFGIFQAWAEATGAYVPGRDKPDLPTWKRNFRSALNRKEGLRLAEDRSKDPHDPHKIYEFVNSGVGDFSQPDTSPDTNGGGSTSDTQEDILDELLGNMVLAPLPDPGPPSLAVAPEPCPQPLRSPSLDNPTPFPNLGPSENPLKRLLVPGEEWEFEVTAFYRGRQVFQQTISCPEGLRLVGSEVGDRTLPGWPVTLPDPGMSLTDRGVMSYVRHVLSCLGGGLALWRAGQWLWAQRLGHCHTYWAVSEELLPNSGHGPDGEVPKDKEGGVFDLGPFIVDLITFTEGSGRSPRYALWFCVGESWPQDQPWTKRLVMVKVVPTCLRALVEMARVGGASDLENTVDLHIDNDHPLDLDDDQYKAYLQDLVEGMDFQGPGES
Oligonucleotide	fitted relative affinity [z-score]
TCACCTTTGCCTCCAGGACTGTGCTAG	0.442
TCAGATCTCAGACTGTGACTGTGCTAG	0.609
GACGGACTGGGGTTTCGGTACGTGCTA	2.44
TTAGGTATCGGGACTGGGTAAGTGCTA	1.39
GACGAACTGGGGACTGGACACGTGCTA	-0.633
TTAGATAACAGTTTCGATTAGTGCTAG	3.22
TCAACTTTCCACTTGTCACTGTGCTAG	2.62
TCAATGATTTTTTTCATACTGTGCTAG	0.319
TTAGGTTTCGATTATCGGTTAGTGCTA	5.77
GACGGACTGCTTTTCGTGACGTGCTAG	-0.158
TTAGGTCCCCTACTGCTTTAGTGCTAG	0.485
TCAACCATCTCATATAAAACTGTGCTA	0.976
TCCATGACCTACCCTGCGTTGTGCTAG	-0.51
GGTGGTGATGGTGAGTAAGAGTGCTAG	-1.19
TTAGGTATCGGTTTCGGGTAGTGCTAG	6.84
TCATATTTGCAACATCCCACTGTGCTA	0.791
TTAGATCTCAGTCCCGATTAGTGCTAG	0.134
TTATGTATCGGTATCGGTTAGTGCTAG	5.23
GACGATTTCAGGTATCGAGACGTGCTA	1.35
GACGTTATCGGGTTTCGGGACGTGCTA	1.62
GACGGACTGGACTATCGGGACGTGCTA	-0.421
GATGATCTCAGACTGGAGACGTGCTAG	-0.241
TTAGGTTTCGGGACTGAGTTAGTGCTA	4.09

Study 4
Target: RNA binding protein fox-1 homolog 2, RRM domain, GST-SBP tag (RBFOX2, Homo sapiens, UniProt O43251-10, residues 100-194)
Technique: RNA Bind-n-Seq
Form: RNA
Sample: in vitro
Concentration: 365 nM
Notes: natural RNA segment, single round, ends assumed
Reference: no-protein control
Reading: higher = stronger binding
Construct (chain): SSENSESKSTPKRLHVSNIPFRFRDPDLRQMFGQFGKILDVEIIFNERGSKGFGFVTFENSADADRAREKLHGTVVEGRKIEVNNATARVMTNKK
Oligonucleotide	RBNS enrichment (R)
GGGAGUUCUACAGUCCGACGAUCCUAGAACCUCUCCUUGCCACAGAGAUGGAAAGGCAUCAGUGCUACACCUGGACUUGGCUUCCUGAGAAAGAUUGUUUUUUAACCUUUGGCUUUCUUCAUUCAGUGUGCCAUGGAAUUCUCGGGUGCCAA	0.353
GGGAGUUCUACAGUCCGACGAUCCUCAGCUGGAUCAGGCAUCUACACACCCCAUUCUUCCAGGGGCCAGUGUCCACACCUGCAUGUAGGGAUUCGGUGUCCUGCUUAAUGCCUUCCCCUCUCGGGCUUCAUUCUGGAAUUCUCGGGUGCCAA	7.7
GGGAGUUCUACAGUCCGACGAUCAGGGCAGAUCCACCGUGCCCUGGUUCCCCAGACAUUCCAGAAUGCCCCACAUCAUUGGCACAGGAGUGGGGCAGCCCCGGAAGGAACCAGGGAUUAGGCUGUAGGGGGGUUGGAAUUCUCGGGUGCCAA	0.543
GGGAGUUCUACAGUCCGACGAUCUCUUAUGGAAACAAUUGGAAAAGUAUAUGGAAAAUGAUUAUUUCAAAGAAUAUUUAUUUAAAGAGGGAAGUGUAGACUUCUUACUGUAAAAUAUGUGAUUCCAGGCUUAAUGGAAUUCUCGGGUGCCAA	0.616
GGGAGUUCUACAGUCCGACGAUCGUGUAUAUGUUGGUUUAAUUAAUAAUAUGUACUAAGAAUGUCCUUAUUCUUGUGGUUAAAAACCUGCCUAAAUUAAAUUGGGCUUCAAUCACUGUAACCUGAUUCAUCCUUGGAAUUCUCGGGUGCCAA	0.26
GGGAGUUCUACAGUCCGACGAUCGAUAGCUUUUGAAGCUUGAACACAUGCCAGUGAGAUGAAAGUUGGCCUUAGCAACUGCCCAGGUCCUGAGAAAUGGAGGGCUUGUUCAUGGGGUUAGAAACCUGCAAAGGUGGAAUUCUCGGGUGCCAA	0.347
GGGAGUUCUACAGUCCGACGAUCGGGCAACACUAAGGUGCUCUUAGAAACACUAAUGUUCCUCUGGGGCAGCCCCCACCUCCGUCCUGACCCGACGGGGGCCCGGCCCACUGCCUACCCUCGAGUCCCGCAGCUGGAAUUCUCGGGUGCCAA	0.16
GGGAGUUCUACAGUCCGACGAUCUAACUUGGCAAACUUUCUAUUGCCUGUCCCAUGUGCAUCUUAUUUAAAAUUUCCCCCAUGGAAAUCACUCUCCUGUUGACUAUUUCCAGAGCUCUAGGUGUUUAGGCAGCUGGAAUUCUCGGGUGCCAA	1.68
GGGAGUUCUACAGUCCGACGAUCCUGUAAUAAUGUUUGUGAAUCUUGACUGUAACAAUGUUGGGUUAUUUUUUGUUUGUUUGUUUGUUUAAUUAUGUAAAAAAAAACAAAAACAAAAAAAUAAGAAAAGAAAAUGGAAUUCUCGGGUGCCAA	2.34

Repeated from above (study 1):
Oligonucleotide	log2 enrichment
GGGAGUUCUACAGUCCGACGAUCAGUCCUGUGCUACACAUCGUAUGUACCGAAUCGGUUUUUUUGGAAAAAGGAAAAAGGAAAGUAUUAUGUUACGCCGUUCGGAUCUGCACUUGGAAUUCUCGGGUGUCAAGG	-0.246
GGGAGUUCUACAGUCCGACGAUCAGUCCUGUGCUACACAUCGUAUGUACCGAAUCAAACCCAAAUUUUUAAAUUUUUAAAAAAGUAUUAUGUUACGCCGUUCGGAUCUGCACUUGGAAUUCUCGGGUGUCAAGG	-0.804
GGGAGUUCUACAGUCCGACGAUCGUCCUGUGCUACACAUCGUAUGUACCGAAUCGGGGAAAAGGGGAAAAGGGAAAAGGGGAAAGUAUUAUGUUACGCCGUUCGGAUCUGCACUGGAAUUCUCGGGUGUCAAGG	0.419
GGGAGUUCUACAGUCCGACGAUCCUCAAGUCCUGUGCUACACAUCGUAUGUACCGAAUCGGUGGUUUGGUUUUUGGAAAGUAUUAUGUUACGCCGUUCGGAUCUGCACUUCCAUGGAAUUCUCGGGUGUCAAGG	-0.26
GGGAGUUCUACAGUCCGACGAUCACCAUGCAGGUGGGCAUCUUUGGUAAGUGGGGCAAGGGGGGGAUAGGGAGGGGGGUAACACUUUGGGAACAGGUGGUCCCAGGUCGUUUCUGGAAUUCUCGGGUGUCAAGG	-0.542
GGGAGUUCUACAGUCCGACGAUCUAACUUUAGAGGAGGAUCUGAUGGAUAUGGCACUGGACGUGGAUUUGGGGAUGGCUAUAAUGGGUAUGGAGGAGGACCUGGAGGUGGCAAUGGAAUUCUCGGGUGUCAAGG	-0.543
